Results collected from several papers.

| Structure (SMILES) | assay | system | conditions | quantity | value |
| --- | --- | --- | --- | --- | --- |
| CN1C(=O)[C@@H](NC(=O)c2nnc(Cc3ccccc3)[nH]2)COc2cccnc21 | – | human, fasted | oral, 200 mg single dose | subjects with headache | 0% |
| CC(C)(C(=O)N1CCOc2c(C#N)cncc2C1)C(F)F | refers to: Restlessness | human | oral, 15 mg twice daily, 14 days, multiple ascending dose | subjects with adverse event | 0% |
| O=C(COc1ccc(Cl)cc1)NC12CC(c3nnc([C@H]4C[C@@H](OC(F)(F)F)C4)o3)(C1)C2 | – | humans | concentration not given | subjects with any TEAE | 73.7% |
| CN(C)C(=N)N=C(N)N | refers to: gastrointestinal disorders | healthy human | oral, dose not given | subjects with adverse event | 29.2% |
| C[C@@H](N)c1cc(Cl)ccc1Cn1c(=S)[nH]c(=O)c2[nH]ccc21 | – | human | oral, 2.5 mg single dose | subjects with nausea | 5% |
| C=C(C)[C@@H]1CC[C@]2(NCCN3CCS(=O)(=O)CC3)CC[C@]3(C)[C@H](CC[C@@H]4[C@@]5(C)CC=C(C6=CC[C@@](CF)(C(=O)O)CC6)C(C)(C)[C@@H]5CC[C@]43C)[C@@H]12 | – | healthy human volunteers | oral, 500 mg, 7 days | subjects with somnolence | 0% |
| Cc1cc(-c2nccc3c2ccn3CC(=O)Nc2ccc(-c3cnccn3)cn2)ccn1 | – | human | 20 mg once daily, multiple ascending dose | subjects with ventricular tachycardia | 0% |
| CC[C@H](C)[C@H](NC(=O)[C@H](Cc1ccccc1)NC(=O)[C@H](CCC(=O)O)NC(=O)[C@H](CCCCNC(=O)COCCOCCNC(=O)COCCOCCNC(=O)CC[C@H](NC(=O)CCCCCCCCCCCCCCCCC(=O)O)C(=O)O)NC(=O)[C@H](C)NC(=O)[C@H](C)NC(=O)[C@H](CCC(N)=O)NC(=O)CNC(=O)[C@H](CCC(=O)O)NC(=O)[C@H](CC(C)C)NC(=O)[C@H](Cc1ccc(O)cc1)NC(=O)[C@H](CO)NC(=O)[C@H](CO)NC(=O)[C@@H](NC(=O)[C@H](CC(=O)O)NC(=O)[C@H](CO)NC(=O)[C@@H](NC(=O)[C@H](Cc1ccccc1)NC(=O)[C@@H](NC(=O)CNC(=O)[C@H](CCC(=O)O)NC(=O)C(C)(C)NC(=O)[C@@H](N)Cc1cnc[nH]1)[C@@H](C)O)[C@@H](C)O)C(C)C)C(=O)N[C@@H](C)C(=O)N[C@@H](Cc1c[nH]c2ccccc12)C(=O)N[C@@H](CC(C)C)C(=O)N[C@H](C(=O)N[C@@H](CCCNC(=N)N)C(=O)NCC(=O)N[C@@H](CCCNC(=N)N)C(=O)NCC(=O)O)C(C)C | – | healthy humans | subcutaneous, 0.25 to 1.5 mg weekly, escalated, 16 weeks, Mild severity | subjects with adverse events | 75.9% |
| CC(=O)N(C)[C@H]1CCN(C(=O)c2cnc3c(c2)C[C@](C)(c2ccc(F)cc2)N3)C1 | – | healthy male human | oral, dose not given, all doses pooled | subjects with AESIs | 4.2% |

A few entries again:
| Structure (SMILES) | assay | system | conditions | quantity | value |
| --- | --- | --- | --- | --- | --- |
| C=C(C)[C@@H]1CC[C@]2(NCCN3CCS(=O)(=O)CC3)CC[C@]3(C)[C@H](CC[C@@H]4[C@@]5(C)CC=C(C6=CC[C@@](CF)(C(=O)O)CC6)C(C)(C)[C@@H]5CC[C@]43C)[C@@H]12 | – | healthy human volunteers | oral, 500 mg, 7 days | subjects with somnolence | 0% |
